{"data": "Results gathered from unrelated publications", "note": "Parts stem from different laboratories: compare values within a part only."}
{"data": "Block 1", "cell line": "HEK-293T", "effect on": "pseudovirus infection", "method": "FDA-approved drug library screen", "organism": "VSV pseudotyped with SARS-CoV-2 spike", "concentration": "10 µM", "time": "16 h", "reference": "vehicle-treated"}
{"Structure (SMILES)": "CO/N=C(\\C(=O)N[C@@H]1C(=O)N2C(C(=O)O)=C(COC(N)=O)CS[C@H]12)c1ccco1", "GFP-positive cells [%]": 73.2}
{"Structure (SMILES)": "Nc1ccn([C@@H]2O[C@H](CO)[C@@H](O)[C@@H]2O)c(=O)n1", "GFP-positive cells [%]": 76.2}
{"Structure (SMILES)": "CCS(=O)(=O)CCn1c([N+](=O)[O-])cnc1C", "GFP-positive cells [%]": 95.6}
{"Structure (SMILES)": "O=C(CCCCC(=O)Nc1c(I)cc(I)c(C(=O)O)c1I)Nc1c(I)cc(I)c(C(=O)O)c1I", "GFP-positive cells [%]": 115}
{"data": "Block 2", "target": "Ras GTPase-activating protein-binding protein 1, RRM domain (G3BP1, Homo sapiens, UniProt Q13283)", "method": "RNA Bind-n-Seq", "form": "RNA", "medium": "in vitro", "concentration": "1 µM", "setting": "whole 134-nt RNA, ends assumed", "with": "150 mM KCl", "reference": "input library", "direction": "higher = stronger binding", "all sequences stand within": "GGGAGUUCUACAGUCCGACGAUC … UGGAAUUCUCGGGUGUCAAGG", "chain of UniProt Q13283 (whole entry, looked up)": "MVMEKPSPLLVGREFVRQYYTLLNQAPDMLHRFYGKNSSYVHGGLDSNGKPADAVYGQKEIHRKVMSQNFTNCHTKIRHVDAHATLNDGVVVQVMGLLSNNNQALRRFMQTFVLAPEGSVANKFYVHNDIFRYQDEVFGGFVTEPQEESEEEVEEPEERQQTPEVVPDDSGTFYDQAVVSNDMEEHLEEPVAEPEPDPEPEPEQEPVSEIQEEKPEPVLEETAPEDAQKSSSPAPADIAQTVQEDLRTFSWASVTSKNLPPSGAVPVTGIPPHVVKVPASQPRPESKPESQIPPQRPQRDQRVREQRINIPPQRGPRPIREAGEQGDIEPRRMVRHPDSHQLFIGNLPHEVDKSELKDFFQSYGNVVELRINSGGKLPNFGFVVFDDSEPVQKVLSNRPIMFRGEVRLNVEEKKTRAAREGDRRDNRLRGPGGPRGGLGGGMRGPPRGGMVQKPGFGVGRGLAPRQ"}
{"Oligonucleotide": "AGUCCUGUGCUACACAUCGUAUGUACCGAAUCGGGCCCCCGGGGCCCCCGGCCCCCGGAAAGUAUUAUGUUACGCCGUUCGGAUCUGCAC", "log2 enrichment": -0.606}
{"Oligonucleotide": "CCUGUGCUACACAUCGUAUGUACCGAAUCAAACCCCCCCAAAUUUUUAAACCCCCCCAAAAAAGUAUUAUGUUACGCCGUUCGGAUCUGC", "log2 enrichment": -1.52}
{"Oligonucleotide": "CAAGUCCUGUGCUACACAUCGUAUGUACCGAAUCGGGUUUUUGGGUUUGGGUGGGAAAGUAUUAUGUUACGCCGUUCGGAUCUGCACUUC", "log2 enrichment": 0.608}
{"Oligonucleotide": "CCUGUGCUACACAUCGUAUGUACCGAAUCGGGGUUUUUUGGGGUUUUUUGGGGUUUUUUGGAAAGUAUUAUGUUACGCCGUUCGGAUCUG", "log2 enrichment": -0.254}
{"Oligonucleotide": "AAGUCCUGUGCUACACAUCGUAUGUACCGAAUCGGGGUUUUUGGGGAGGGGAGGGGAAAGUAUUAUGUUACGCCGUUCGGAUCUGCACUU", "log2 enrichment": 0.981}
{"Oligonucleotide": "AAGUCCUGUGCUACACAUCGUAUGUACCGAAUCGGGUUUUUUUGGGAAAGGGUGGGAAAGUAUUAUGUUACGCCGUUCGGAUCUGCACUU", "log2 enrichment": 0.459}
{"Oligonucleotide": "UGGCCCCGGUGGCAUGCGGGGAGGAAGAGGUGGCCUCAUGGAUCGUGGUGGUCCCGGUGGAAUGUUCAGAGGUGGCCGUGGUGGAGACAG", "log2 enrichment": 0.83}
{"Oligonucleotide": "UCAAGUCCUGUGCUACACAUCGUAUGUACCGAAUCGGGAAGGAAGGGGAAGGGGAAAGUAUUAUGUUACGCCGUUCGGAUCUGCACUUCC", "log2 enrichment": 0.626}
{"data": "Block 3", "target": "RNA binding protein fox-1 homolog 2, RRM domain, GST-SBP tag (RBFOX2, Homo sapiens, UniProt O43251-10, residues 100-194)", "method": "RNA Bind-n-Seq", "form": "RNA", "medium": "in vitro", "concentration": "365 nM", "setting": "natural RNA segment, single round, ends assumed", "reference": "no-protein control", "direction": "higher = stronger binding", "all sequences stand within": "GGGAGUUCUACAGUCCGACGAUC … UGGAAUUCUCGGGUGCCAA"}
{"Oligonucleotide": "UCUGCUGGUCAGAGAUGAAGCCACGCCUUUCCAUUUUUCAAUGCUGCAUAUUUAAUCUGCAACAAAAAUGUUAAGCCAUAACAGCCUUUUUAUAUUUUAGUUUGUCACCU", "RBNS enrichment (R)": 0.716}
{"Oligonucleotide": "UGGGCCUCUAGGCUGUCUCUGUCCCCUCAGCUCCCCGACAUGCAUUUACUCUCUGCCGUGGGUCUGCAGUCGCUGCAACCUACCCUCUCUCUGCCUCAGCCUUACACCCA", "RBNS enrichment (R)": 2.26}
{"Oligonucleotide": "AAUUCAUGUCUAAAUCACUGGGGUUGAGACUCCUUCAGCCUCCCUGGUUGAUUAGAGAUUCUGAGAAGCAGUAGAGCUGGCUGGGAGGUGGGCUACAGAGGAGCAAGCAA", "RBNS enrichment (R)": 4.73}
{"Oligonucleotide": "ACCAUAGCAUAACAAAGGCUGCUCUCUGUGCUAGUAGCAGUGCUCAGCAGCAUGCACUGUUGAGCUUUUCUGACGCUGUGUCAGAAUGGCACUAGUUCAGUUUAUAUCCC", "RBNS enrichment (R)": 2.28}
{"Oligonucleotide": "ACUUGGAAGUGGUGAAUUAUUUUAUAUAAGGUCAUUUAAAUAUCUAUUUAAAAAAUAGGAAGCUGCUUUUAUAUUUAAUAAUAAAAGAAGUGCACAAGCUGCCACGUGUG", "RBNS enrichment (R)": 0.574}
{"Oligonucleotide": "ACAAGAUGUGCCUUGCCUUCCGAGAAUAAGUAUUACCUUUAAACAAUAUCAGCGCACACACAUAGCUGCAUGUUCUGCUCGUGUAGUUUAAAAAAAAAAAGACAAAACAG", "RBNS enrichment (R)": 2.19}
{"Oligonucleotide": "CACUGGCUCCGGGUCUACAUGGUGGGAGGAUCAGGAUGCUAAUGUUUCCCCUCUUUGGUUCUCAAAUAGCAUAGUUUAAUAACGAGUCAGACCGUAUUACAACAAAAACA", "RBNS enrichment (R)": 0.569}
{"Oligonucleotide": "GAAGGUCCACAAAUAGCAGUUCACAUCACAGCCCUGCAGUCCCCUUUUGUAGCUGUGUUUAAGGUCAUUUCCAUCAAUGAUGGGGUCUGCUCCCUCCCUCCCUGUAAGCU", "RBNS enrichment (R)": 0.423}
{"data": "Block 4", "target": "Interferon regulatory factor 7, full length, phosphomimetic (IRF7, Homo sapiens, UniProt Q92985, residues 1-503, S101K/S471D/S472D/S475D/S476D/S477D/S483D/S484D/S487D)", "method": "protein-binding microarray", "form": "double-stranded DNA, one strand shown", "medium": "in vitro", "concentration": "250 nM", "setting": "60-bp whole probe", "with": "salmon DNA 0.4 mg/ml", "reference": "random background probes", "direction": "higher = stronger binding", "all sequences stand within": "GCCTAGCAC … GTGCTAGGTCTTGATTCGCTTGACGCTGCTG", "Residues (chain)": "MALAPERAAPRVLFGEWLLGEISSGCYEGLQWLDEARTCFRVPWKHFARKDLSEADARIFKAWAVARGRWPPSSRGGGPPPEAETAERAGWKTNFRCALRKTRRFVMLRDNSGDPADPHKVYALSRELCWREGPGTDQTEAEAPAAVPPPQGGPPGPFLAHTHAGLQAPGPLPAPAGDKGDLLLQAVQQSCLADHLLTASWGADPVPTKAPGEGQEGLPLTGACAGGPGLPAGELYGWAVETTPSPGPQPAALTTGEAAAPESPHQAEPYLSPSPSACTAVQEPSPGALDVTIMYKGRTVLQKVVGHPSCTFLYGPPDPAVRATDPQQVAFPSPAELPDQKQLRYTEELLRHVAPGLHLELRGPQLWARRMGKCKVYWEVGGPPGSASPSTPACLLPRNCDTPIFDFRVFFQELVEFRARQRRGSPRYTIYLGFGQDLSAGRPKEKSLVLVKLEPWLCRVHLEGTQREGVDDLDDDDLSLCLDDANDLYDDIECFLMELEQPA"}
{"Oligonucleotide": "GCTATTTTTAGGATGGGCTA", "log fluorescence": "0.211 z-score"}
{"Oligonucleotide": "TTAGAACTGTGACTGGATTA", "log fluorescence": "0.0974 z-score"}
{"Oligonucleotide": "GACGGTTTCGGTCTCGGGGC", "log fluorescence": "7.68 z-score"}
{"Oligonucleotide": "TCAGTACTTTCTATCTCACT", "log fluorescence": "0.789 z-score"}
{"Oligonucleotide": "TCTAATCTCACTCTGTCCCT", "log fluorescence": "0.253 z-score"}
{"Oligonucleotide": "CTGGCTTTGACTCTTTCTGT", "log fluorescence": "-0.634 z-score"}
{"Oligonucleotide": "TTAGCTTTCGGTCTCGGTTA", "log fluorescence": "2.29 z-score"}
{"Oligonucleotide": "TTAGATATCAGTCGCGATTA", "log fluorescence": "0.743 z-score"}
{"data": "Block 5", "target": "Replicase polyprotein 1ab, nsp13 helicase (rep, Severe acute respiratory syndrome coronavirus 2, UniProt P0DTD1)", "mode": "inhibitor", "concentration": "20 µM"}
{"Structure (SMILES)": "C=CC(=O)Nc1ccc2ncnc(Nc3ccc(OCc4cccc(F)c4)c(Cl)c3)c2c1", "inhibition [%]": 4.17}
{"Structure (SMILES)": "CCCCCCCCCCC(=O)O[C@H]1CC[C@H]2[C@@H]3CCC4=CC(=O)CC[C@]4(C)[C@H]3CC[C@]12C", "inhibition [%]": 4.51}
{"Structure (SMILES)": "Cc1oc(-c2ccccc2)nc1CCOc1ccc(CC2SC(=O)NC2=O)c2sccc12 (stereo not drawn)", "inhibition [%]": -0.32}
{"Structure (SMILES)": "COC(=O)C1=C(C#N)NC(C)=C(C(=O)OC(C)C)C1c1cccc([N+](=O)[O-])c1 (stereo not drawn)", "inhibition [%]": 8.77}
{"Structure (SMILES)": "CN[C@H](CC(C)C)C(=O)N[C@H]1C(=O)N[C@@H](CC(N)=O)C(=O)N[C@H]2C(=O)N[C@H]3C(=O)N[C@H](C(=O)N[C@H](C(=O)O)c4cc(O)cc(O)c4-c4cc3ccc4O)[C@H](O)c3ccc(c(Cl)c3)Oc3cc2cc(c3O[C@@H]2O[C@H](CO)[C@@H](O)[C@H](O)[C@H]2O[C@H]2C[C@](C)(N)[C@H](O)[C@H](C)O2)Oc2ccc(cc2Cl)[C@H]1O", "inhibition [%]": 17.2}
{"Structure (SMILES)": "COc1ccc2nc3ccc(Cl)cc3c(SCCCN)c2c1", "inhibition [%]": 0.19}
{"Structure (SMILES)": "C1=C2CCCN[C@H]2[C@@H]2C[C@H]1[C@H]1CCCCN1C2", "inhibition [%]": 4.1}
{"Structure (SMILES)": "O=S(=O)(c1cccc2cnccc12)N1CCCNCC1", "inhibition [%]": -16.2}
{"Structure (SMILES)": "COc1cc(F)c(C(C)C)cc1-c1ccc(C(F)(F)F)cc1CN1C(=O)O[C@H](c2cc(C(F)(F)F)cc(C(F)(F)F)c2)[C@@H]1C", "inhibition [%]": 4.05}
{"Structure (SMILES)": "Fc1ccccc1-c1nc2ccn(Cc3ccc(-c4ccc(C(F)(F)F)cc4C(F)(F)F)nn3)cc-2n1", "inhibition [%]": 3.34}
{"Structure (SMILES)": "O=C(O)CCCc1c[nH]c2ccccc12", "inhibition [%]": 6.46}
{"Structure (SMILES)": "N[C@@H](Cc1c[nH]c2ccccc12)C(=O)O", "inhibition [%]": 7.01}
{"Structure (SMILES)": "O=c1[nH]c(=O)c2ccccc2o1", "inhibition [%]": 10.4}
{"Structure (SMILES)": "COc1cc2c(cc1OC)-c1cc3nc4ccccc4nc3n1C(C)(C)C2", "inhibition [%]": 7.02}
{"Structure (SMILES)": "N/C(=N\\C(=O)c1nc(Cl)c(N)nc1N)NCc1ccccc1", "inhibition [%]": 2.7}
{"Structure (SMILES)": "NCCNS(=O)(=O)c1ccc(Cl)c2ccncc12", "inhibition [%]": 5.01}
{"Structure (SMILES)": "O=C(OCC(O)CO)c1ccccc1Nc1ccnc2cc(Cl)ccc12 (stereo not drawn)", "inhibition [%]": 2.29}
{"Structure (SMILES)": "CCOC(=O)[C@H](Cc1ccc([N+](=O)[O-])cc1)NC(=O)c1ccccc1", "inhibition [%]": 1.87}
{"Structure (SMILES)": "COC(=O)[C@@H](N)CCCNC(=N)N[N+](=O)[O-]", "inhibition [%]": 3.34}
{"Structure (SMILES)": "OC[C@H]1O[C@H](O[C@]2(CCl)O[C@H](CCl)[C@@H](O)[C@@H]2O)[C@H](O)[C@@H](O)[C@H]1Cl", "inhibition [%]": -1.45}
{"Structure (SMILES)": "C[C@@H]1CC(=O)c2c(ccc3c2C(=O)c2cccc(O)c2C3=O)C1", "inhibition [%]": 2.6}
{"Structure (SMILES)": "C[C@H](CCC(=O)O)[C@H]1CC[C@H]2[C@@H]3CC[C@@H]4C[C@H](O)CC[C@]4(C)[C@H]3C[C@H](O)[C@]12C", "inhibition [%]": -2.21}
{"Structure (SMILES)": "NC1(Cc2ccc(Cl)cc2)CCN(c2ncnc3[nH]ccc23)CC1", "inhibition [%]": 1.15}
{"Structure (SMILES)": "C/C(=N\\NC(=O)C(NC(=O)c1ccccc1)c1n[nH]c(=O)c2ccccc12)c1cccc(Br)c1 (stereo not drawn)", "inhibition [%]": 5.49}
{"Structure (SMILES)": "C[C@]12CCC(=O)C=C1[C@@H]1C[C@@H]1[C@H]1[C@@H]3[C@@H]4C[C@@H]4[C@@]4(CCC(=O)O4)[C@@]3(C)CC[C@@H]12", "inhibition [%]": 1.06}
{"data": "Other studies, line by line"}
{"Structure (SMILES)": "O=[N+]([O-])/C=C/c1ccc2c(c1)OCO2", "target": "Replicase polyprotein 1ab, main protease (rep, Severe acute respiratory syndrome coronavirus 2, UniProt P0DTD1)", "assay": "enzyme activity, inhibitor", "setting": "20 µM, primary screen", "endpoint": "inhibition", "result": "98.8%"}
{"note": "For quick reference, copied from above (block 4):"}
{"Oligonucleotide": "TCAGTACTTTCTATCTCACT", "log fluorescence": "0.789 z-score"}
{"Oligonucleotide": "TCTAATCTCACTCTGTCCCT", "log fluorescence": "0.253 z-score"}
{"Oligonucleotide": "CTGGCTTTGACTCTTTCTGT", "log fluorescence": "-0.634 z-score"}
{"Oligonucleotide": "TTAGCTTTCGGTCTCGGTTA", "log fluorescence": "2.29 z-score"}
